Assay results collected from several papers.
Numbered parts are unrelated; each lists some results of a single study.

Block 1
Target: Prothrombin, mature alpha-thrombin (F2, Homo sapiens, UniProt P00734)
Method: aptamer microarray, sandwich
Form: DNA with 2'F-ANA
Sample: in vitro
Tested at: 200 nM
Setting: whole 15-mer aptamer, many near background
Together with: Cy3 exosite-II aptamer, 400 nM
Direction: higher = stronger binding
Sequence: GGTTGGTGTGGTTGG
Modification | mean fluorescence intensity
2'F-ANA at 2 3 5 6 8 9 12 14 | 52.6 a.u.
2'F-ANA at 2 5 8 9 11 12 14 15 | 47.1 a.u.
2'F-ANA at 2 3 4 7 8 9 11 13 14 | 244 a.u.
2'F-ANA at 2 4 6 8 10 11 12 15 | 91.7 a.u.
2'F-ANA at 1 2 3 4 5 6 9 10 13 14 | 68.7 a.u.
2'F-ANA at 2 4 5 6 8 9 11 13 14 | 48 a.u.
2'F-ANA at 2 7 8 11 13 14 15 | 133 a.u.
2'F-ANA at 1 2 3 4 6 7 8 9 10 11 15 | 194 a.u.
2'F-ANA at 3 7 9 12 14 | 757 a.u.
2'F-ANA at 3 5 7 9 10 13 14 15 | 49.3 a.u.
2'F-ANA at 4 5 8 10 12 13 14 | 44.7 a.u.
2'F-ANA at 3 6 8 12 14 15 | 526 a.u.
2'F-ANA at 1 2 4 5 6 8 11 13 14 | 49.3 a.u.
2'F-ANA at 1 9 10 13 15 | 53.7 a.u.
2'F-ANA at 1 2 3 4 5 6 8 9 10 15 | 49.7 a.u.
2'F-ANA at 1 3 4 5 6 10 15 | 76.4 a.u.
2'F-ANA at 3 4 6 11 15 | 479 a.u.
2'F-ANA at 6 8 9 10 | 179 a.u.
2'F-ANA at 1 3 4 5 7 10 11 12 13 15 | 47.3 a.u.
2'F-ANA at 1 3 4 6 7 12 14 | 110 a.u.
2'F-ANA at 2 4 9 11 12 14 15 | 102 a.u.
2'F-ANA at 1 2 4 5 6 9 13 | 49.8 a.u.
2'F-ANA at 2 3 5 8 11 13 15 | 94.6 a.u.
2'F-ANA at 3 4 5 6 8 9 10 12 14 15 | 57.5 a.u.
2'F-ANA at 2 3 6 7 8 12 14 15 | 491 a.u.

Block 2
Target: Fragile X messenger ribonucleoprotein 1, C-terminal low-complexity region (Fmr1, Mus musculus, UniProt P35922)
Method: RNA Bind-n-Seq
Form: RNA
Sample: in vitro
Tested at: 200 nM
Setting: whole 134-nt RNA, ends assumed
Together with: 150 mM LiCl
Reference: input library
Direction: higher = stronger binding
Each molecule: 7-deaza-guanosine replaces G
Constant ends, left off below: GGGAGUUCUACAGUCCGACGAUC … UGGAAUUCUCGGGUGUCAAGG
Sequence | log2 enrichment
UCAAGUCCUGUGCUACACAUCGUAUGUACCGAAUCGGGUUUGGGGUUUGGUUUGGAAAGUAUUAUGUUACGCCGUUCGGAUCUGCACUUC | -1.01
AGUCCUGUGCUACACAUCGUAUGUACCGAAUCGGUUUGGUUUUUUUGGUUUUUUUGGAAAGUAUUAUGUUACGCCGUUCGGAUCUGCACU | -1.6
AGUCCUGUGCUACACAUCGUAUGUACCGAAUCGGGAAAAAGGGUGGGUUUUUUUGGGAAAGUAUUAUGUUACGCCGUUCGGAUCUGCACU | -2.23
CACAGACAACACGGACCCACACAGACACAGAGGGAAGGGGUUGGGAUGGGGACAGGGUGCACAGCAGGGCGGGGUAGGACCCCAGCCCCU | -0.838
UCAAGUCCUGUGCUACACAUCGUAUGUACCGAAUCGGAAAAGGAAAAGGAAAAGGAAAGUAUUAUGUUACGCCGUUCGGAUCUGCACUUC | -0.534
AGUCCUGUGCUACACAUCGUAUGUACCGAAUCAAACCCCCAAAUUUAAAUUUUUAAAAAAGUAUUAUGUUACGCCGUUCGGAUCUGCACU | 0.303
CCUGUGCUACACAUCGUAUGUACCGAAUCGGUUUUUUUGGUUUUUUUGGGGUUUUUUUGGAAAGUAUUAUGUUACGCCGUUCGGAUCUGC | -0.428
AAGUCCUGUGCUACACAUCGUAUGUACCGAAUCAAAUUUUUAAAUUUAAACCCAAAAAAGUAUUAUGUUACGCCGUUCGGAUCUGCACUU | -0.314
UGCAGUGAUGGUCAUUGUCCUCCAGAGCAGUGAUGGAGGAAAUACCAGCCCAGGAAGCAGCAGGGUCACCAAGGGUCCAGUUUCAGUCUU | -0.503
UUGAUGUUAGUAAAUUUGGUGUAAUACGUGGGGCUUCCAUAUUUCAAAGUGGAAGCUUUCUUCUCUGAAGUCGAUAUAUGGUUUUGAAUU | -0.893
GUCCUGUGCUACACAUCGUAUGUACCGAAUCGGGUUUUUUUGGGAAAGGGAAAAAGGGAAAGUAUUAUGUUACGCCGUUCGGAUCUGCAC | -1.28

Block 3
Target: RING finger protein unkempt homolog, zinc fingers 1-6, GST-SBP tag (UNK, Homo sapiens, UniProt Q9C0B0, residues 30-357)
Method: RNA Bind-n-Seq
Form: RNA
Sample: in vitro
Tested at: not given
Setting: RNA with constant flanks, human-mouse chimeric sites, ends assumed
Reference: input RNA pool
Direction: higher = stronger binding
Constant ends, left off below: GGGAGUUCUACAGUCCGACGAUC … CAACAGAGGAUUGAGCAUCA
Target sequence (chain): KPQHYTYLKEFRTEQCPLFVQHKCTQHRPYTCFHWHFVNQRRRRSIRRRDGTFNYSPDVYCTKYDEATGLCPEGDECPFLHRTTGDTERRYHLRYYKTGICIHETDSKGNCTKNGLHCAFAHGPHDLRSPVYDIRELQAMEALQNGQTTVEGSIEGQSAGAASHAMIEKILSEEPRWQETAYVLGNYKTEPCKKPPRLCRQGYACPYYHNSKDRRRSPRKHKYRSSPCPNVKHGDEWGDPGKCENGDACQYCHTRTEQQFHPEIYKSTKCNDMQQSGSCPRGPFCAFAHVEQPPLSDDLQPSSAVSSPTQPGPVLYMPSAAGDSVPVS
Sequence | bound/input enrichment
CUAGCAGUCCAGCAGCUAGAAGGAGCCUUGAGACAAACACUCCACACACAGGGAAGGCGAUAACAUUGUACAUUGGUUUACAUUUUUCUCCUUGAAUGAUUUUUCUAGAGGUCAUAGUGC | 0.313 ratio
AGGAGGAGGUUAAAGGGUGAGAGUGGGGUGGAAGACUGUGUCAUGGCUCUGGAGACAUUGUUUAGUGUCCUGCUUUCUCUGUGCAGACUGAUGGCCCCUUACACGCCUUUUCUCACUGAG | 0.0979 ratio
AAAGAAUGGAUAGAGUGUGCACAUGGAAUCGGUGGGACCCGGGCGAAAAAGGAGUGCAAGAUAGAGUUCGAUGACUUCGAAGAGUGCUUGCUUCGGUACAAAACGAUGAGGCGAAUGCAU | 0.467 ratio
UAAAUUAGGGCUGCCGUUUUCUGUUUCUCCCUGGGCUGCGGAAAGCCAGAAGAUUUUAUCUAGUUUGUACAAGGCUGCUGGUGUUCCCUCUUUUUUUCCCUCUCUCUGUUUUUGGCUGCA | 1.61 ratio
UGACAAGCACGAGCAUCAGCCAUGCCUUUCUUGGACAUACAGAAAAAGCUGGGCAUCAGCCUGGACCGGCACUUUAUGUUCCUAAGCGCAGAACAGCCCUAUAAGAACGCCGCUCGGUGC | 0.0751 ratio
UGUGCAUAUGAUGCUUGAGAUGGUUUUUGCAAAAGCAGAAAUCGCUGCAAGGUAAUCCUAAUAGAGAAAAGUGGUAUUUUAAACCUUUGAAAUAAAUGGAUGUAACUGUACCUUGGUACA | 0.774 ratio
CACAGAGCAGCACCUACCCCCUCCUCCUUUCCACACCUGCAAACUCUUUUACUUGGGCUGAAUAUUUAGUGUUAAUUCAUCUCAGCUUUGAGGGCUCCUGUGGCAAAAUACCCGGAUAAA | 0.935 ratio
UGUGCAUAUGAUGCUUGGAGAUGGUUUUGCAAAAGCAGAAAUCGCUGCAAGGUAAUCACAAUAGAUAAAAGUGGUAUUUUAAACCUUUGAAAUAAAUGGAUGUAACUGUACGUUGGUACA | 0.934 ratio
GACUUUGGAACUGGUCCUCGCAACGCAGCCUUCUAUAGCCCUCAUGGACAUAUAUUAGUGCUGGCUGGAUUUGGAAAUCUUCGAGGACAAAUGGAAGUGUGGGAUGUUAAAAACUACAAG | 0.31 ratio
AUAAAGGCUAUGUUGAGUGGUCCAGGUCAGUUUGCUGAGAACGAAACCAACGAGGUCAAUUUUAGAGAGAUCCCCUCACAUGUGCUAUCAAAAGUGUGCAUGUAUUUUACCUACAAGGUC | 0.146 ratio
AAGGUGAUGACUAUGUUUGUCCAACGACAGGUAUUUUCGGAGAGCAAAGAUGAGAUUGCGUUAGUCCUGUUUGGUACAGAUGGCACUGAUAAUGCCCUUGCUGGCAAGGACCAGUAUCAG | 0.144 ratio

Block 4
Target: Histone acetyltransferase KAT6A, winged helix 2, GST fusion (KAT6A, Homo sapiens, UniProt Q92794, residues 85-181)
Method: protein binding microarray
Form: double-stranded DNA, one strand shown
Sample: in vitro
Tested at: not given
Setting: 8-mer, flanks averaged, mean of 2 arrays, mostly near background
Reference: not given
Direction: higher = stronger binding
Construct (chain): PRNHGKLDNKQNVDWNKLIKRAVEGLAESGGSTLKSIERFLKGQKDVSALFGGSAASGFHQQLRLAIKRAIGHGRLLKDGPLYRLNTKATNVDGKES
Sequence | E-score
ATGCACAT | -0.00381
CGGGAATC | 0.0576
AAAACCGA | 0.12
GAAGAATC | 0.0173
GCGGAGAC | 0.213
GAAAGATA | 0.0248
CCCCAAAC | -0.0136
GCTGATCA | 0.0114
GGCAGACA | 0.0533
AGCACTGC | -0.0191
CTGTAAAC | -0.173
ACGCGCTG | 0.0738
CGTTATAA | -0.00169
AAGGGAAA | 0.0103
AGCGATAG | -0.0521
CTTTCGTA | -0.206
GATAGGCC | -0.129

A few entries again (block 2):
Sequence | log2 enrichment
UCAAGUCCUGUGCUACACAUCGUAUGUACCGAAUCGGAAAAGGAAAAGGAAAAGGAAAGUAUUAUGUUACGCCGUUCGGAUCUGCACUUC | -0.534
AGUCCUGUGCUACACAUCGUAUGUACCGAAUCAAACCCCCAAAUUUAAAUUUUUAAAAAAGUAUUAUGUUACGCCGUUCGGAUCUGCACU | 0.303
CCUGUGCUACACAUCGUAUGUACCGAAUCGGUUUUUUUGGUUUUUUUGGGGUUUUUUUGGAAAGUAUUAUGUUACGCCGUUCGGAUCUGC | -0.428
AAGUCCUGUGCUACACAUCGUAUGUACCGAAUCAAAUUUUUAAAUUUAAACCCAAAAAAGUAUUAUGUUACGCCGUUCGGAUCUGCACUU | -0.314
UGCAGUGAUGGUCAUUGUCCUCCAGAGCAGUGAUGGAGGAAAUACCAGCCCAGGAAGCAGCAGGGUCACCAAGGGUCCAGUUUCAGUCUU | -0.503
